{"data": "Published values from different studies", "note": "Compare with care: the assays were run in different laboratories. ± gives the spread as reported."}
{"SMILES": "COc1cc(C(=O)NCCOCCOCCOCCNC(=O)C[C@@H]2N=C(c3ccc(Cl)cc3)c3c(sc(C)c3C)-n3c(C)nnc32)ccc1NC(=O)[C@@H]1N[C@@H](CC(C)(C)C)[C@](C#N)(c2ccc(Cl)cc2F)[C@H]1c1cccc(Cl)c1F", "cell line": "most sensitive cancer line", "effect on": "cell viability", "technique": "PRISM barcoded screen", "time": "5 d", "IC50 [nM]": 140}
{"SMILES": "c1ccc2sccc2c1", "cell line": "HUVEC", "effect on": "thymidine uptake", "action": "inhibitor", "IC50 [nM]": "> 20000"}
{"SMILES": "COc1c(C)c2c(c(O)c1C/C=C(\\C)CCC(=O)O)C(=O)OC2", "cell line": "RD-ES", "effect on": "cell proliferation", "IC50 [nM]": 525}
{"SMILES": "CC[C@H](C)[C@@H]1NC(=O)[C@H](Cc2ccc(-c3ccccc3)cc2)NC(=O)[C@H](CC(C)C)NC(=O)[C@@H]2[C@@H](c3ccccc3)CCN2C(=O)[C@H](NC(=O)[C@@H](CCCNC(=N)N)NC(=O)[C@@H](CCCNC(=N)N)NC(=O)[C@H](CCCCN=[N+]=[N-])NC(C)=O)CSCSC[C@@H](C(=O)N[C@H](CCCNC(=N)N)C(=O)N[C@H](CCCNC(=N)N)C(N)=O)NC(=O)[C@H](C(C)C)NC(=O)[C@@H]2CCCN2C(=O)[C@H](CC(=O)O)NC(=O)[C@H](Cc2ccc(O)cc2)NC(=O)[C@](C)(CO)NC1=O", "cell line": "AsPC-1", "effect on": "LDH release", "time": "18 h", "IC50 [nM]": "> 50000"}
{"SMILES": "CC(=O)O[C@H]1C(=O)[C@@]2(C)[C@H]([C@H](OC(=O)c3ccccc3)[C@]3(O)C[C@H](OC(=O)[C@H](O)[C@@H](NC(=O)c4ccccc4)c4ccccc4)C(C)=C1C3(C)C)[C@]1(OC(C)=O)CO[C@@H]1C[C@@H]2O", "cell line": "HeLa 14 expressing mutant P-gp", "time": "48 h", "IC50 [nM]": "9.7 ± 0.6"}
{"SMILES": "Cc1ncsc1-c1ccc(CNC(=O)[C@@H]2C[C@@H](O)CN2C(=O)[C@@H](NC(=O)C2(F)CC2)C(C)(C)C)c(OCCOc2ccc(CN3CCN(c4cc(-c5ccccc5O)nnc4N)CC3)cc2)c1", "cell line": "SMARCA4 wild-type lung cancer cells", "effect on": "clonogenic growth", "time": "10 days", "setting": "median over cell lines", "IC50 [nM]": 18}
{"SMILES": "COC(=O)c1ccccc1-c1c2ccc(=N)cc-2oc2cc(N)ccc12", "cell line": "HeLa 14 expressing mutant P-gp", "time": "48 h", "IC50 [nM]": "2870 ± 300"}
{"SMILES": "CC(C)c1n[nH]c2c(Nc3ccccc3)nc(CNCc3ccccc3)cc12", "cell line": "SKOV3", "effect on": "cell viability", "technique": "MTS", "time": "48 h", "IC50 [nM]": "2800 ± 400"}
{"SMILES": "N.N.[Cl][Pt][Cl]", "cell line": "2C6 normal pancreatic", "effect on": "cytotoxicity", "technique": "MTT", "time": "24 h", "IC50 [nM]": "3160 ± 120"}
{"SMILES": "c1ccc(CNCc2cc3c(-c4ccccc4)n[nH]c3c(Nc3ccccc3)n2)cc1", "cell line": "SKOV3", "effect on": "cell viability", "technique": "MTS", "time": "48 h", "IC50 [nM]": "4300 ± 200"}
{"SMILES": "CC[C@H](C)[C@@H]1NC(=O)[C@H](Cc2ccc(-c3ccccc3)cc2)NC(=O)[C@H](CC(C)C)NC(=O)[C@@H]2[C@@H](c3ccccc3)CCN2C(=O)[C@H](NC(=O)[C@H](CCCNC(=N)N)NC(=O)[C@H](CCCNC(=N)N)NC(C)=O)CSCSC[C@@H](C(=O)N[C@@H](CCCNC(=N)N)C(=O)N[C@@H](CCCNC(=N)N)C(N)=O)NC(=O)[C@H](C(C)C)NC(=O)[C@@H]2CCCN2C(=O)[C@H](CC(=O)O)NC(=O)[C@H](Cc2ccc(O)cc2)NC(=O)[C@H](CO)NC1=O", "cell line": "AsPC-1", "effect on": "LDH release", "time": "18 h", "IC50 [nM]": "> 50000"}
{"SMILES": "CC(=N)S", "cell line": "THLE-2, 3D culture", "technique": "MTT", "time": "96 h", "IC50 [nM]": "181800 ± 654"}
{"SMILES": "N.N.[Cl][Pt][Cl]", "cell line": "Jurkat E6-1", "effect on": "cell proliferation", "technique": "CellTiter-Glo", "time": "72 h", "IC50 [nM]": 1210}
{"SMILES": "CC[C@@H](C)[C@H]1NC(=O)[C@H](Cc2ccc(-c3ccccc3)cc2)NC(=O)[C@H](CC(C)C)NC(=O)[C@@H]2[C@@H](c3ccccc3)CCN2C(=O)[C@H](NC(=O)[C@@H](CCCNC(=N)N)NC(=O)[C@@H](CCCNC(=N)N)NC(C)=O)CSCSC[C@@H](C(=O)N[C@H](CCCNC(=N)N)C(=O)N[C@H](CCCNC(=N)N)C(N)=O)NC(=O)[C@H](C(C)C)NC(=O)[C@@H]2CCCN2C(=O)[C@H](CC(=O)O)NC(=O)[C@H](Cc2ccc(O)cc2)NC(=O)[C@@](C)(CO)NC1=O", "cell line": "AsPC-1", "effect on": "LDH release", "time": "18 h", "IC50 [nM]": "> 50000"}
{"SMILES": "N.N.[Cl][Pt][Cl]", "cell line": "THLE-2", "effect on": "cytotoxicity", "technique": "MTT", "setting": "3D culture", "IC50 [nM]": "4900 ± 121"}
{"SMILES": "COC1=C2C[C@@H](C)C[C@H](OC)[C@H](O)[C@@H](C)/C=C(\\C)[C@H](OC(N)=O)[C@@H](OC)/C=C\\C=C(/C)C(=O)NC(=C(c3ccccc3)C1=O)C2=O", "cell line": "HUVEC", "effect on": "cytotoxicity", "technique": "MTT", "IC50 [nM]": "2100 ± 400"}
{"SMILES": "COc1cccc2c1C(=O)c1c(O)c3c(c(O)c1C2=O)C[C@@](O)(C(=O)CO)C[C@@H]3O[C@H]1C[C@H](N)[C@H](O)[C@H](C)O1", "cell line": "SKOV3", "effect on": "cell viability", "technique": "MTS", "time": "48 h", "IC50 [nM]": "74 ± 25"}
{"SMILES": "C=CCNC1=C2C[C@@H](C)C[C@H](OC)[C@H](O)[C@@H](C)/C=C(\\C)[C@H](OC(N)=O)[C@@H](OC)/C=C\\C=C(/C)C(=O)NC(=C(c3ccccc3)C1=O)C2=O", "cell line": "HUVEC", "effect on": "cytotoxicity", "technique": "MTT", "IC50 [nM]": "> 20000"}
{"SMILES": "[Cl-].[Cl-].[Co+2]", "cell line": "HL-7702 normal hepatocytes", "effect on": "cell viability", "technique": "MTT", "time": "48 h", "IC50 [nM]": "> 150000"}
{"SMILES": "Cc1ncsc1-c1ccc([C@H](C)NC(=O)[C@@H]2C[C@@H](O)CN2C(=O)[C@@H](c2cc(N3CCC(CN4CCC(OC5CC(Oc6cc(N7C8CCC7CN(c7cc(-c9ccccc9O)nnc7N)C8)ccn6)C5)CC4)CC3)no2)C(C)C)cc1 (stereo partly shown)", "cell line": "normal prostate epithelial cells", "effect on": "cell viability", "technique": "CellTiter-Glo", "time": "7 days", "IC50 [nM]": 83}
{"SMILES": "CCCCC[C@@H]1NC(=O)[C@@H]2CCCN2C(=O)[C@H](CC(=O)O)NC(=O)[C@H](Cc2ccc(O)cc2)NC(=O)[C@H](CO)NC(=O)[C@H]([C@@H](C)CC)NC(=O)[C@H](Cc2ccc(-c3ccccc3)cc2)NC(=O)[C@H](CC(C)C)NC(=O)[C@@H]2[C@@H](c3ccccc3)CCN2C(=O)[C@H](NC(=O)[C@H](CCCNC(=N)N)NC(=O)[C@H](CCCNC(=N)N)NC(C)=O)CSCSC[C@@H](C(=O)N[C@@H](CCCNC(=N)N)C(=O)N[C@@H](CCCNC(=N)N)C(N)=O)NC1=O", "cell line": "AsPC-1", "effect on": "LDH release", "time": "18 h", "IC50 [nM]": "> 50000"}
{"SMILES": "COc1cc(Nc2nc(CN)cc3c(-c4ccccc4)n[nH]c23)cc(OC)c1OC", "cell line": "SKOV3", "effect on": "cell viability", "technique": "MTS", "time": "48 h", "IC50 [nM]": "3900 ± 400"}
{"note": "Excerpt of the above:"}
{"SMILES": "CC[C@H](C)[C@@H]1NC(=O)[C@H](Cc2ccc(-c3ccccc3)cc2)NC(=O)[C@H](CC(C)C)NC(=O)[C@@H]2[C@@H](c3ccccc3)CCN2C(=O)[C@H](NC(=O)[C@@H](CCCNC(=N)N)NC(=O)[C@@H](CCCNC(=N)N)NC(=O)[C@H](CCCCN=[N+]=[N-])NC(C)=O)CSCSC[C@@H](C(=O)N[C@H](CCCNC(=N)N)C(=O)N[C@H](CCCNC(=N)N)C(N)=O)NC(=O)[C@H](C(C)C)NC(=O)[C@@H]2CCCN2C(=O)[C@H](CC(=O)O)NC(=O)[C@H](Cc2ccc(O)cc2)NC(=O)[C@](C)(CO)NC1=O", "cell line": "AsPC-1", "effect on": "LDH release", "time": "18 h", "IC50 [nM]": "> 50000"}
{"SMILES": "CC(=O)O[C@H]1C(=O)[C@@]2(C)[C@H]([C@H](OC(=O)c3ccccc3)[C@]3(O)C[C@H](OC(=O)[C@H](O)[C@@H](NC(=O)c4ccccc4)c4ccccc4)C(C)=C1C3(C)C)[C@]1(OC(C)=O)CO[C@@H]1C[C@@H]2O", "cell line": "HeLa 14 expressing mutant P-gp", "time": "48 h", "IC50 [nM]": "9.7 ± 0.6"}
{"SMILES": "Cc1ncsc1-c1ccc(CNC(=O)[C@@H]2C[C@@H](O)CN2C(=O)[C@@H](NC(=O)C2(F)CC2)C(C)(C)C)c(OCCOc2ccc(CN3CCN(c4cc(-c5ccccc5O)nnc4N)CC3)cc2)c1", "cell line": "SMARCA4 wild-type lung cancer cells", "effect on": "clonogenic growth", "time": "10 days", "setting": "median over cell lines", "IC50 [nM]": 18}
